Results from different studies.
Protocols differ between the studies behind these lines. Values joined by “and” are separate records of one study, mostly repeats; a detail may differ. ± gives the spread as reported.
Target: Serine/threonine-protein kinase 24 (STK24, Homo sapiens, UniProt Q9Y6E0)
Chain of UniProt Q9Y6E0 (whole entry, looked up): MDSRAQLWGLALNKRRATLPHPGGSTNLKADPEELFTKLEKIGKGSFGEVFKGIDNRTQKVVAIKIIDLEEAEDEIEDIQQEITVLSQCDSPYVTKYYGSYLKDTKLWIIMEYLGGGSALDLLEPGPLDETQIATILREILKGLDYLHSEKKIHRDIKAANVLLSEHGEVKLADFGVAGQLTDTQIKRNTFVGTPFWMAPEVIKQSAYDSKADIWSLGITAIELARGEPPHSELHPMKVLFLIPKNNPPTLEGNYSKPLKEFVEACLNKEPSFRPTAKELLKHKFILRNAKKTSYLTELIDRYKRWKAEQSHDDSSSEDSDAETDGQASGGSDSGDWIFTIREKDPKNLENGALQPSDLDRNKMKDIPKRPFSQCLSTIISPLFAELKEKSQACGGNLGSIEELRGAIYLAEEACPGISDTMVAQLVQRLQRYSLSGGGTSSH

SMILES = COc1cc(F)ccc1-c1ncnc(Nc2cccc(C[S@](C)(=N)=O)c2)n1; test = kinase activity; conditions = 10 µM, with: 10 µM ATP; quantity = remaining activity; result = 89%
SMILES = CC#CC(=O)N1CCC[C@H]1c1nc(-c2ccc(C(=O)Nc3ccccn3)cc2)c2c(N)nccn12; test = kinase activity, inhibitor, HotSpot radiometric; conditions = 100 nM, with: ATP 10 µM; quantity = remaining activity; result = 91 ± 6.3%
SMILES = C[C@@H](c1ccc(-n2cnc3c(N)ncnc32)cc1)N1CCc2nn(C)c(Cc3ccccc3)c2C1=O; test = KINOMEscan; conditions = 0.1 µM; scale = reference: DMSO control; quantity = remaining binding; result = 100%
SMILES = COc1ccc(F)cc1C(=O)NCc1ccc(-c2nn([C@@H](C)C(F)(F)F)c(N)c2C(N)=O)cc1; test = kinase activity, inhibitor, HotSpot radiometric; conditions = 1000 nM, with: ATP at Km; quantity = remaining activity; result = 98.8 ± 2.9%
SMILES = C=CC(=O)N1CCC(C(=O)NCC(=O)N2CCN(c3nc(-c4cnc(N)nc4C(F)F)nc(N4CCOCC4)n3)CC2)CC1; test = KINOMEscan; conditions = 1 µM; quantity = remaining binding; result = 98%
SMILES = O=C(NC1CCC1)c1ccc2nc(-c3cccc(NS(=O)(=O)NCCN4CCCCC4)c3)cn2c1; test = enzyme activity; conditions = 10 µM; quantity = remaining activity; result = 93%
SMILES = C1=C/COCc2cc(ccc2OCCN2CCCC2)Nc2nccc(n2)-c2cccc(c2)COC/1; conditions = concentration not given, gene name MST3; quantity = percent of control; result = 99%
SMILES = CCCOc1ccc(OC)c(F)c1C(=O)c1ccc(C(=O)N[C@@H]2CNC[C@H]2NC(=O)c2ccc3[nH]ncc3c2)cc1; test = enzyme activity; conditions = 10 µM; quantity = remaining activity; result = 66%
SMILES = C=CC(=O)N1CCC([C@@H]2CCNc3c(C(N)=O)c(-c4ccc(Oc5ccccc5)cc4)nn32)CC1; test = kinase activity, inhibitor, HotSpot radiometric; conditions = 100 nM, with: ATP 10 µM; quantity = remaining activity; result = 66.1 ± 0.5%
SMILES = O=C(COP(=O)(O)O)[C@@H](O)[C@H](O)[C@H](O)COP(=O)(O)O; test = thermal proteome profiling; test system = HepG2 cell lysate; conditions = concentration not given, 57 over 37 °C; scale = reference: compound over control; quantity = thermal stability ratio; result = 0.667 and 0.643 and 0.545
SMILES = CCN(CC)c1ccc(C2=NNC(=O)CC2C)cc1[N+](=O)[O-] (centres unmarked); test = enzyme activity, inhibitor; conditions = 10 µM; quantity = remaining activity; result = 0%
SMILES = CC[C@@H]1[C@H](F)C(=O)N[C@@H]1COc1nccc2cc(C(N)=O)c(OC)cc12; test = ATP-site probe binding, ActivX profiling, item: MST3; test system = THP-1 cell lysate; conditions = 0.04 mM, Lys1 site; quantity = inhibition; result = -19.7%
SMILES = C=CC(=O)N1CCC(COCC(=O)N2CCN(c3nc(-c4cnc(N)nc4C(F)F)nc(N4CCOC[C@@H]4C)n3)CC2)CC1; test = KINOMEscan; conditions = 1 µM; scale = reference: DMSO control; quantity = remaining binding; result = 100%
SMILES = CNc1ncc2c(/C=C/C(=O)N3CCC(OC)CC3)nn(Cc3cccc(C(F)(F)F)c3)c2n1; test = kinase activity, inhibitor; conditions = 1 µM; scale = reference: untreated control; quantity = remaining activity; result = 106%

Some of these lines once more:
SMILES = C1=C/COCc2cc(ccc2OCCN2CCCC2)Nc2nccc(n2)-c2cccc(c2)COC/1; conditions = concentration not given, gene name MST3; quantity = percent of control; result = 99%
